Experimental data pooled from the literature.
A part holds a random share of what one study measured. Positions count from the first letter of the parent shown.

Study 1
Target: RNA binding protein fox-1 homolog 2, RRM domain, GST-SBP tag (RBFOX2, Homo sapiens, UniProt O43251-10, residues 100-194)
Technique: RNA Bind-n-Seq
Molecule type: RNA
Medium: in vitro
Concentration: 365 nM
Notes: natural RNA segment, single round, ends assumed
Baseline: no-protein control
Direction: higher = stronger binding
| Strand | RBNS enrichment (R) |
| --- | --- |
| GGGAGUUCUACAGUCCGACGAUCGGGUAACAGCUGAAACAAACGGAAGUUUUUGUACCAAAGUGGCCGGAGGUGGGGAAGAACUACUUUCGAGAAUUGUUACGGAGGCAGGUUGAGGGGACACUUUGACCCUCUGGAAUUCUCGGGUGCCAA | 0.426 |
| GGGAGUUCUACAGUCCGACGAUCUUUAAGAUGCUUGUAAAUAUUAUUUAUGUUUUUAAUUUUGUAAAAUAAAGAUUGCUUUUUAACCAUUGGCAUGAAGUGUGGUCUUUGCUAGCUAGAAUCUGACUGACGUCUGGAAUUCUCGGGUGCCAA | 1.21 |
| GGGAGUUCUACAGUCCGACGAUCAUAUUUUAAACAGCUUUGCUUGUAUUGUGAAGAUUUAAGAACAAACUUGAGAUUUUUAAAGUUAACUAUUAACACAGUUUUAACAUAAGUUAUCCCACUGGGUUUAAAAGUGGAAUUCUCGGGUGCCAA | 0.409 |
| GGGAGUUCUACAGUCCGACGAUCUGGUCAGCUAGCUGGAGGCAGUGUUGCUGGUGUGUGUUGGGGGGAGGGGUUCUAAUGGAAUGGAUGGGGAUGUCCACACACGCAUUCAGAUGGCUGUACAACAGGUUGUAUGGAAUUCUCGGGUGCCAA | 1.13 |
| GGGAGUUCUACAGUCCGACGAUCUUCAUGAAUAUCUGACUUUAAUAAGUUGGUAAGGAUAUAUUUUUUUGUCUAUGUUCUGUUUCAACUUAUGUAGAUUAUUAUAAAUUGAUGUAAACCACGUGAGAGGAAAAUGGAAUUCUCGGGUGCCAA | 0.421 |
| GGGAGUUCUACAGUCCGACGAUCAUUGGAAAUUCAGAAGUUAAUGUUUUUUUGUAAGCACAAAAGAAGUAUUAUAGAAAUUUAUCCUAGCAAGACUUUACAAGAUAGGAUCAAAUUCUAAUGGAAUUGAGCCGUGGAAUUCUCGGGUGCCAA | 0.519 |
| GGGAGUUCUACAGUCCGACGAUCCCUAAGAAGAUGGAUGUCCUCAAAAGAGAAGGAACAAACCUCCUUGGGAAUCCACAUUUUUUGGGGGAAUGGAAAAGCUCUGUCUCCCUAACUCAACUGCUUUGCAAGGGUGGAAUUCUCGGGUGCCAA | 0.432 |
| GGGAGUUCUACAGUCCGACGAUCUUGUUUGUUUUGCCGCCCUGGACACAUGUUUGCCUCCUCCAAGAAUUUCUGCGGGGAUUUGUAUCCCAUGCCUUCGUCUUCUCCUCCCCGUCCAACUCCCUGGAGACCCUUGGAAUUCUCGGGUGCCAA | 4.39 |
| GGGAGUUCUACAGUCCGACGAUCACUGUUACCUUGUGUUCCACCUUGAAUCUCACAGCGUCCCCUUCUGCAAUGUAGGUCUCCUUCCUGUGCAGUGUAACAUGUAUCCCGUUGCCUGUUGUUCGGUUGUGUGAUGGAAUUCUCGGGUGCCAA | 1.15 |
| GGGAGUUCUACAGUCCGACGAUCACAGAGGUGUGAAUAAAAGCAUCAGGAAAUCGGAUGGAGAACCACCAUUCACCCAAGGGUCAGAGGAGGUUUCAAAGAAAAGGUGUCAUUGGAGCAGUGUUUUGCAGAAUUGGAAUUCUCGGGUGCCAA | 0.654 |
| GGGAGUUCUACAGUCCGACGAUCCCCACAGCUGCCGCGGUGGCCCCUAGCCUGAGGGGCCUGGAGUCGUGGCCCUGCAUUUCUGGGUAGGGCUGGCAAUGGUUGCCUUAACCCUGGCUCCUGGCCCGAGCCUGUGGAAUUCUCGGGUGCCAA | 0.61 |
| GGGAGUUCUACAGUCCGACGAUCUCAACUCAGCAUCUCUCCCCCUAUGGACUUAACCCAAGUGUUUUUAAUGCUGGUAGCAGUUGGAUCCAGGCACAACCAGACUUAGUUGCACAACUGUAUGUGACCAAAAGUGGAAUUCUCGGGUGCCAA | 0.673 |

Study 2
Target: Fragile X messenger ribonucleoprotein 1, C-terminal low-complexity region (Fmr1, Mus musculus, UniProt P35922)
Technique: RNA Bind-n-Seq
Molecule type: RNA
Medium: in vitro
Concentration: 200 nM
Notes: whole 134-nt RNA, ends assumed
Added: 150 mM LiCl
Baseline: input library
Direction: higher = stronger binding
Library: 7-deaza-guanosine replaces G
| Strand | log2 enrichment |
| --- | --- |
| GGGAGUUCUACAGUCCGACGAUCGUCCUGUGCUACACAUCGUAUGUACCGAAUCGGGAAAAAAAGGGAAAGGGUUUUUGGGAAAGUAUUAUGUUACGCCGUUCGGAUCUGCACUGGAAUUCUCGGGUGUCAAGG | -1.51 |
| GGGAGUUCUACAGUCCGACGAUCCACAGACAACACGCACCCACACGGACACAGAGGGAAGGGGUUGGGAUGGGGACAGGGUGCACAGCAGGGCGGGGUAGGACCCCAGCCCCUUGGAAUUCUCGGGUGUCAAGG | 0.813 |
| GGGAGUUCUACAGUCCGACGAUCCCUGUGCUACACAUCGUAUGUACCGAAUCGGGAAAAAAGGGGAAAAAAGGGAAAAAAGGGGAAAGUAUUAUGUUACGCCGUUCGGAUCUGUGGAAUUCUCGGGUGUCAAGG | 0.508 |
| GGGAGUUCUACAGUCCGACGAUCUAACUUUAGAGGAGGAUCUGAUGGAUAUGGCAGUGGCCGUGGAUUUGGGGAUGGCUAUAAUGGGUAUGGAGGAGGACCUGGAGGUGGCAAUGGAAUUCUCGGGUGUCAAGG | -0.485 |
| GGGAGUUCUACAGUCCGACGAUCAGUCCUGUGCUACACAUCGUAUGUACCGAAUCGGGUGGGUUUUUGGGAAAAAAAGGGAAAGUAUUAUGUUACGCCGUUCGGAUCUGCACUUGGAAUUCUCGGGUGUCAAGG | -1.48 |
| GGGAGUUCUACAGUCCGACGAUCAAGUCCUGUGCUACACAUCGUAUGUACCGAAUCAAACCCAAACCCAAAUUUUUAAAAAAGUAUUAUGUUACGCCGUUCGGAUCUGCACUUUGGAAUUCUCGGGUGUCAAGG | 0.551 |
| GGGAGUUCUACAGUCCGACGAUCCCUGUGCUACACAUCGUAUGUACCGAAUCGGGAAAAAAAGGGAAAAAAAGGAAAAAAAGGAAAGUAUUAUGUUACGCCGUUCGGAUCUGCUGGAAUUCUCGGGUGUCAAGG | -0.231 |
| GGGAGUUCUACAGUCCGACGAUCUGUCAUGGAUUCAAGUUAUUAAAAGCAUAAGUUUGGAAGACAGGCUUGCCGAAAUUGAGGACAUGAUUAAAAUUGCAGUGAAGUUUGAAAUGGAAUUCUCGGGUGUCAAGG | -4.51 |
| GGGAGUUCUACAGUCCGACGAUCCUCAAGUCCUGUGCUACACAUCGUAUGUACCGAAUCGGGCCGGGGCCGGCCGGAAAGUAUUAUGUUACGCCGUUCGGAUCUGCACUUCCAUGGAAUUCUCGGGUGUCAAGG | 0.498 |
| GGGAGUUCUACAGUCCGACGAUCUGGGAGGUGGAUUUUGUUUAUUUUUUUAGCUCAUUUCCAGGGGUGGGAAUUUUUUUUUAAUAUGUGUCAUGAAUAAAGUUGUGUUUGAAAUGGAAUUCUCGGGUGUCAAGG | 0.513 |
| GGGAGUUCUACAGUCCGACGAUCAGUCCUGUGCUACACAUCGUAUGUACCGAAUCGGGAAAAGGGAAAAGGGGAAAAGGGGAAAGUAUUAUGUUACGCCGUUCGGAUCUGCACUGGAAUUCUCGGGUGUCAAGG | 0.176 |

Study 3
Target: Sal-like protein 4, full length isoform B (SALL4, Homo sapiens, UniProt Q9UJQ4-2, residues 1-616)
Technique: universal PBM
Molecule type: double-stranded DNA, one strand shown
Medium: in vitro
Concentration: not given
Notes: 8-mer, flanks averaged, mean of replicates
Direction: higher = stronger binding
| Strand | E-score |
| --- | --- |
| CCTGCTGA | -0.07 |
| GTGGCGTA | -0.0264 |
| AAGGCGTC | -0.134 |
| CGTCGGTC | -0.212 |
| CAGTATAG | 0.136 |
| ACTGTGGC | -0.212 |
| CGACAACG | -0.0772 |
| CTGTCGTC | -0.118 |
| ATTTACCG | 0.0861 |
| ACGTCACG | 0.0226 |
| AACCGTGT | -0.101 |
| AGAGTTGC | -0.0724 |
| CAAGCCTG | -0.0897 |
| GACGTGGC | -0.157 |
| CTGAACCC | -0.296 |
| CTGACGTA | -0.132 |
| ACCACCAG | -0.139 |
| CGTCGTTC | 0.0237 |

Study 4
Target: BATF3, bZIP domain (human)
Technique: DHFR protein complementation
Medium: yeast
Notes: single substitutions, most at no-binding floor
Baseline: wild-type JUN-FOS pair
Direction: higher = stronger binding
Parent: JUN, bZIP domain (human); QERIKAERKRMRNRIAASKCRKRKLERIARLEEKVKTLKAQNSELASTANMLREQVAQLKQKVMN; partner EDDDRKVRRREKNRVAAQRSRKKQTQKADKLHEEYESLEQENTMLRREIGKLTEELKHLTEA
| Variant | binding fitness [natural log] |
| --- | --- |
| I28Y | 0.162 |
| L38Q | 0.117 |
| A29S | 0.134 |
| L59W | 0.13 |
| K39S | 0.155 |
| L31I | 0.244 |
| L45Y | 0.0915 |
| N42G | -0.0423 |
| I28W | 0.186 |
| L38C | 0.0687 |
| E44F | 0.127 |
| E44L | 0.127 |
| T48Y | 0.15 |
| Q41H | 0.146 |
| A29N | 0.171 |
| R53G | 0.0469 |
| E32I | 0.0904 |
| R53H | 0.0433 |
| M51A | 0.266 |
| S47N | 0.17 |
| T37E | 0.228 |
| L38V | 0.171 |
| S43D | 0.211 |
| L52Q | -0.494 |
| I28R | 0.279 |

A few entries again (study 2):
| Strand | log2 enrichment |
| --- | --- |
| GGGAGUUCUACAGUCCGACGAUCGUCCUGUGCUACACAUCGUAUGUACCGAAUCGGGAAAAAAAGGGAAAGGGUUUUUGGGAAAGUAUUAUGUUACGCCGUUCGGAUCUGCACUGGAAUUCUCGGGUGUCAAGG | -1.51 |
| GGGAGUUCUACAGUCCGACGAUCCACAGACAACACGCACCCACACGGACACAGAGGGAAGGGGUUGGGAUGGGGACAGGGUGCACAGCAGGGCGGGGUAGGACCCCAGCCCCUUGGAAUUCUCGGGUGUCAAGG | 0.813 |
| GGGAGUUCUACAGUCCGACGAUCCCUGUGCUACACAUCGUAUGUACCGAAUCGGGAAAAAAGGGGAAAAAAGGGAAAAAAGGGGAAAGUAUUAUGUUACGCCGUUCGGAUCUGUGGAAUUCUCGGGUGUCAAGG | 0.508 |
| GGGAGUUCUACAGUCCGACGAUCUAACUUUAGAGGAGGAUCUGAUGGAUAUGGCAGUGGCCGUGGAUUUGGGGAUGGCUAUAAUGGGUAUGGAGGAGGACCUGGAGGUGGCAAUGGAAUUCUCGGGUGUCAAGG | -0.485 |
| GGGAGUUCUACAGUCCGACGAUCAGUCCUGUGCUACACAUCGUAUGUACCGAAUCGGGUGGGUUUUUGGGAAAAAAAGGGAAAGUAUUAUGUUACGCCGUUCGGAUCUGCACUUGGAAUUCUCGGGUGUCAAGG | -1.48 |
| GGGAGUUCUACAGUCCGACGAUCAAGUCCUGUGCUACACAUCGUAUGUACCGAAUCAAACCCAAACCCAAAUUUUUAAAAAAGUAUUAUGUUACGCCGUUCGGAUCUGCACUUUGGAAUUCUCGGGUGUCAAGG | 0.551 |
| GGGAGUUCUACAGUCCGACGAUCCCUGUGCUACACAUCGUAUGUACCGAAUCGGGAAAAAAAGGGAAAAAAAGGAAAAAAAGGAAAGUAUUAUGUUACGCCGUUCGGAUCUGCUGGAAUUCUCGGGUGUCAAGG | -0.231 |
| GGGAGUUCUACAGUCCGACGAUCUGUCAUGGAUUCAAGUUAUUAAAAGCAUAAGUUUGGAAGACAGGCUUGCCGAAAUUGAGGACAUGAUUAAAAUUGCAGUGAAGUUUGAAAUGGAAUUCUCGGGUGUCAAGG | -4.51 |
